Experimental data pooled from the literature.
Every numbered part comes from another study and shows a few of its results, in no order. Several values in a cell are separate wells, animals, samples, runs or records.
Sequence of UniProt P35916 (whole entry, looked up): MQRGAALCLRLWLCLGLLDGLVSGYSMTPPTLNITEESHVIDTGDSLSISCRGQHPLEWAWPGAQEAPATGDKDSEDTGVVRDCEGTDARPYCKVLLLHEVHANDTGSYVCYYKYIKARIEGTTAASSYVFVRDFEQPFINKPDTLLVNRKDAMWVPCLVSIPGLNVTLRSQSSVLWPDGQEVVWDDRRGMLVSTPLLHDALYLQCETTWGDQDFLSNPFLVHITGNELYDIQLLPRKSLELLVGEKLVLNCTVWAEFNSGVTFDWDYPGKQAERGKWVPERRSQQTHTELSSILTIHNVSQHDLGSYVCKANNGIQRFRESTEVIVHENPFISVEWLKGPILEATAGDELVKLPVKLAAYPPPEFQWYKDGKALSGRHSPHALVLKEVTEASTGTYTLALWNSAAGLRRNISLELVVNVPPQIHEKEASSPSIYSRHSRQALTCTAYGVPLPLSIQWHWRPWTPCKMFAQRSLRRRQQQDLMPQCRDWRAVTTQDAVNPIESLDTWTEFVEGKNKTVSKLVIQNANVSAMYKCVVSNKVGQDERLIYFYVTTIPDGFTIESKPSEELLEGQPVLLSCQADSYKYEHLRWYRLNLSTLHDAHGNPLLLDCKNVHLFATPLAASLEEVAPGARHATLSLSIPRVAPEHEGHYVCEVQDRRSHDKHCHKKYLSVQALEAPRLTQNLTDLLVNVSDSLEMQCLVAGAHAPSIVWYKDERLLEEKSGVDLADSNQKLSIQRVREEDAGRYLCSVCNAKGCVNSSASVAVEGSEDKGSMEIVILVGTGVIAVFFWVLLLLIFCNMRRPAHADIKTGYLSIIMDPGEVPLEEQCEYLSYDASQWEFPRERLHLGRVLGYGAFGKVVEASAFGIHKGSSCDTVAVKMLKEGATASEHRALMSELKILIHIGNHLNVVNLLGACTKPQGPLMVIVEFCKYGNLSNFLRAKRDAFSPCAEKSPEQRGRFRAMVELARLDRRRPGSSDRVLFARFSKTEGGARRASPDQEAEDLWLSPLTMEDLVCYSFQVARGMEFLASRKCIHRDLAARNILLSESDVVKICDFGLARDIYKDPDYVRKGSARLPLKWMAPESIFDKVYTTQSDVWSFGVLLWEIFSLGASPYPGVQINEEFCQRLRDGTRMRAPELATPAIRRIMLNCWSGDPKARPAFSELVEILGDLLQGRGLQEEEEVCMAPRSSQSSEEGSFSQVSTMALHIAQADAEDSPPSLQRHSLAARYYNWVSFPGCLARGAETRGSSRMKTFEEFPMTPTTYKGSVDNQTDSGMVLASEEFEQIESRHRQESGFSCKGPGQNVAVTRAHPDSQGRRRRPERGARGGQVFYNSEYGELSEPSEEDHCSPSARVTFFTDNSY
Sequence of UniProt Q13131 (whole entry, looked up): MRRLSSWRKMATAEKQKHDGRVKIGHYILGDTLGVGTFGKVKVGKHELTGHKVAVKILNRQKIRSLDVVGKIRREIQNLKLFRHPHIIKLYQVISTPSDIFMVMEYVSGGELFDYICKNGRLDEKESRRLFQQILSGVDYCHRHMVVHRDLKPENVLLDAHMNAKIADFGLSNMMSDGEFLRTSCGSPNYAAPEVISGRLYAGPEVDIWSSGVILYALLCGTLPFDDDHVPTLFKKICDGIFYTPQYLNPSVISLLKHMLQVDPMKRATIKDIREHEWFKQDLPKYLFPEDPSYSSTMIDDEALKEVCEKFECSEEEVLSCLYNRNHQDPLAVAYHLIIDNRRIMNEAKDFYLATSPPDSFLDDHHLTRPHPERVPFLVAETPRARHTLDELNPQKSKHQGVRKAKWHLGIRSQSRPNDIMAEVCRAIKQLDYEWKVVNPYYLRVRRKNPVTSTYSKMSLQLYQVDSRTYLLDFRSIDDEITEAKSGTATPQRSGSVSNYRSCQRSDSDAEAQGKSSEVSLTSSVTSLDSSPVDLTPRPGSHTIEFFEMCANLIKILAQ
Sequence of UniProt P42336 (whole entry, looked up): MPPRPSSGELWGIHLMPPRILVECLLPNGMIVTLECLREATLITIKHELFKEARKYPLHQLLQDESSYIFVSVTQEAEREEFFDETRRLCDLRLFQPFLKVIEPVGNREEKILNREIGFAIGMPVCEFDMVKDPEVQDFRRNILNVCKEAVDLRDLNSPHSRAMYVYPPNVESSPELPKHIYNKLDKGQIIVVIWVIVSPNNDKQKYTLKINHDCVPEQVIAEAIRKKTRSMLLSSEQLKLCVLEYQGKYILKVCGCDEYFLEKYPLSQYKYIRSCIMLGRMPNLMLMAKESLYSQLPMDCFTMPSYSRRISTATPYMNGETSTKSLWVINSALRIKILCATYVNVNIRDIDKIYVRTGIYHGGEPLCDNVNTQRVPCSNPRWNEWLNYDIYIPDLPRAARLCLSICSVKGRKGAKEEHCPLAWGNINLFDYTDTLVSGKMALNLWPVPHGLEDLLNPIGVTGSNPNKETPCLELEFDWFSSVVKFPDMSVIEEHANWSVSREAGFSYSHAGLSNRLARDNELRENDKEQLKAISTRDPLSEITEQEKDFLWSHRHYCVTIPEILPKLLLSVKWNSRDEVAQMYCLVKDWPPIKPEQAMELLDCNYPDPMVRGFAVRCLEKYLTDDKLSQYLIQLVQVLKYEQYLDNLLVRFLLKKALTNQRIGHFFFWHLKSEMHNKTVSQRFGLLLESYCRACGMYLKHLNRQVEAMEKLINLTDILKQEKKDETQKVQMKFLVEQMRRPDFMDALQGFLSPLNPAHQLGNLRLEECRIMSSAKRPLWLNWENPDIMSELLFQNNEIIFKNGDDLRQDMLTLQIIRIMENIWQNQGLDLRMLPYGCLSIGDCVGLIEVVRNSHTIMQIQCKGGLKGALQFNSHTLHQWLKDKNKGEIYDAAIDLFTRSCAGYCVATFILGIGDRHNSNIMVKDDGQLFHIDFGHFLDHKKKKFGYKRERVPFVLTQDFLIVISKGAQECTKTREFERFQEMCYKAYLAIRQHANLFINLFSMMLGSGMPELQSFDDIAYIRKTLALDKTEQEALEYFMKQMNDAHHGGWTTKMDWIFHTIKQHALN
Sequence of UniProt Q15375 (whole entry, looked up): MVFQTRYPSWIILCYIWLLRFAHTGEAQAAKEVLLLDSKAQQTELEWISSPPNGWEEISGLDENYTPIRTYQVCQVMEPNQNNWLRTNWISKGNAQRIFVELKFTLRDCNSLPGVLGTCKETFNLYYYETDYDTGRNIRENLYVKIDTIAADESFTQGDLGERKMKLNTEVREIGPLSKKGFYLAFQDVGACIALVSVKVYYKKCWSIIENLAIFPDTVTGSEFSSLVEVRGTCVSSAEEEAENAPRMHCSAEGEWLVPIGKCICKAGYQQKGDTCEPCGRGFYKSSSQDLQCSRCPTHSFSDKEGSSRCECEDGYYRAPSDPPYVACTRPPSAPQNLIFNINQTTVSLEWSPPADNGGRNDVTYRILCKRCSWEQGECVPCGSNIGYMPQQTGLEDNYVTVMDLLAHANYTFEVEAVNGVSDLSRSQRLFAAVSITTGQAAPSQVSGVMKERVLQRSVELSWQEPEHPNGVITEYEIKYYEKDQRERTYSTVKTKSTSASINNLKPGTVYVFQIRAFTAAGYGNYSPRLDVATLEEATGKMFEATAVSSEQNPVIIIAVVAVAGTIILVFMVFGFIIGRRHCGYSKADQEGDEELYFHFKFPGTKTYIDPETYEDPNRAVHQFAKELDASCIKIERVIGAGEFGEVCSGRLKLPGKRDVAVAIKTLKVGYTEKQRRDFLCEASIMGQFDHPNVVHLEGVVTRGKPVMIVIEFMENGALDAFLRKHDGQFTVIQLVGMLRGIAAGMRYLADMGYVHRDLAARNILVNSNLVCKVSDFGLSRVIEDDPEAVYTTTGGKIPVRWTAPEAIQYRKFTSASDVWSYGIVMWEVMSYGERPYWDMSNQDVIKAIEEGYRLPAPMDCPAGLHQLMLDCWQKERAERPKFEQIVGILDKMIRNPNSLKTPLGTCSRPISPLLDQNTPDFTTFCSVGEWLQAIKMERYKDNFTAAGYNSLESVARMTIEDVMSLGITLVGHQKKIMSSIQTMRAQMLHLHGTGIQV
Sequence of UniProt P00519 (whole entry, looked up): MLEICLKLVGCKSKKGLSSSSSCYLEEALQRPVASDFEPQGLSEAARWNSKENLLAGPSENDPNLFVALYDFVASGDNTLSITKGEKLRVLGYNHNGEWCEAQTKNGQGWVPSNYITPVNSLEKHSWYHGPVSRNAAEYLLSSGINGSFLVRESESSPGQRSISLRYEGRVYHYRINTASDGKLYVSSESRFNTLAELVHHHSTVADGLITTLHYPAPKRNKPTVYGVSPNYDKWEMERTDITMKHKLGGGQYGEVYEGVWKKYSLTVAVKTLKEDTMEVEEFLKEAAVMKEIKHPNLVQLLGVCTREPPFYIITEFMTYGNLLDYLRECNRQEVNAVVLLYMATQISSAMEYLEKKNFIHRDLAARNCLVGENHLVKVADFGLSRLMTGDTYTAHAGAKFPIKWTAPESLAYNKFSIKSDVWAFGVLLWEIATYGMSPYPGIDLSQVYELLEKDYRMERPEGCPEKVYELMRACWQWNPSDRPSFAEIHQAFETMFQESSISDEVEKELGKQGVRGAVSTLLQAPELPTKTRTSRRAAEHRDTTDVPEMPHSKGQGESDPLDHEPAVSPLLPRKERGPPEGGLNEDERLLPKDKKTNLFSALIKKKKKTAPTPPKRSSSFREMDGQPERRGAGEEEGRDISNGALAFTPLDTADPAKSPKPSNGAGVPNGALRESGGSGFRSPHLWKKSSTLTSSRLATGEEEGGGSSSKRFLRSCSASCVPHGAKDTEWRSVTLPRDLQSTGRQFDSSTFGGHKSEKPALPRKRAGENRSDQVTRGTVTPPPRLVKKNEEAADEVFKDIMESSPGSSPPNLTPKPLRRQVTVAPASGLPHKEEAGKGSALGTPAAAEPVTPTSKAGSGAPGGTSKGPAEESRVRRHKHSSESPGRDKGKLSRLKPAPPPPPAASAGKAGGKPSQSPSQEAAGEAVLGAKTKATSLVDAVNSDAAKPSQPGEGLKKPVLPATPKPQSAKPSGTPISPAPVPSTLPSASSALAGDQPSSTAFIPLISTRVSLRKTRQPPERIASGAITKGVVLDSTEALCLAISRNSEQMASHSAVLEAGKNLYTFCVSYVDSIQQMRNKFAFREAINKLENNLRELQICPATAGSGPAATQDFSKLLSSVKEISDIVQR

Study 1
Compound: Cn1cc(-c2cccc(CN3CCC4(CC3)COc3c4ccc4c3CN([C@H]3CCC(=O)NC3=O)C4=O)c2)cn1
| host | medium | route | dose | setting | AUC(0-inf) |
| --- | --- | --- | --- | --- | --- |
| rat | plasma | oral | 2.98 mg/kg | group mean | 2840 ng·h/mL |
| cynomolgus monkey | plasma | intravenous | 1 mg/kg | – | 949 ng·h/mL |
| rat | plasma | intravenous | 1.02 mg/kg | – | 847 ng·h/mL |
| cynomolgus monkey | – | intravenous | 1 mg/kg | – | 812 ng·h/mL and 1170 ng·h/mL and 862 ng·h/mL |

Study 2 — SMILES: O=C(Nc1ccccc1)Nc1cccc(Oc2ccc3nccn3n2)c1; tested at: 1 µM
| target | observed | method | remaining binding |
| --- | --- | --- | --- |
| 5'-AMP-activated protein kinase catalytic subunit alpha-1 (PRKAA1, Homo sapiens, UniProt Q13131) | binding | competition with immobilised ligand | 89% |
| NUAK family SNF1-like kinase 1 (NUAK1, Homo sapiens, UniProt O60285) | binding | – | 100% |
| Casein kinase I isoform gamma-3 (CSNK1G3, Homo sapiens, UniProt Q9Y6M4) | binding | – | 98% |
| Serine/threonine-protein kinase Nek10 (NEK10, Homo sapiens, UniProt Q6ZWH5) | binding | – | 100% |
| Dual specificity mitogen-activated protein kinase kinase 1 (MAP2K1, Homo sapiens, UniProt Q02750) | binding | competition with immobilised ligand | 100% |
| Casein kinase I isoform alpha-like (CSNK1A1L, Homo sapiens, UniProt Q8N752) | binding | – | 41% |
| Ephrin type-A receptor 7 (EPHA7, Homo sapiens, UniProt Q15375) | – | cell-free binding | 100% |
| Phosphatidylinositol 3-kinase catalytic subunit type 3 (PIK3C3, Homo sapiens, UniProt Q8NEB9) | binding | – | 100% |

Study 3 — observed: kinase activity
Compound: CNc1ncc2cc(-c3cc(OC)cc(OC)c3Cl)c(=O)n(CCc3ccc(NC(=O)C(C#N)=CC(C)(C)N4CCOCC4)cc3)c2n1
| target | tested at | inhibition |
| --- | --- | --- |
| Vascular endothelial growth factor receptor 3 (FLT4, Homo sapiens, UniProt P35916) | 1 µM | > 90% and 91% |
| Tyrosine-protein kinase CSK (CSK, Homo sapiens, UniProt P41240) | 1 µM | 7% |
| Serine/threonine-protein kinase MARK2 (MARK2, Homo sapiens, UniProt Q7KZI7) | 0.1 µM | 3% |
| Serine/threonine-protein kinase Nek1 (NEK1, Homo sapiens, UniProt Q96PY6) | 1 µM | 41% |
| Tyrosine-protein kinase ABL1 (ABL1, Homo sapiens, UniProt P00519) | 1 µM | 3% |
| Phosphatidylinositol 4,5-bisphosphate 3-kinase catalytic subunit alpha isoform (PIK3CA, Homo sapiens, UniProt P42336) | 0.1 µM | -5% |
| Receptor-interacting serine/threonine-protein kinase 2 (RIPK2, Homo sapiens, UniProt O43353) | 1 µM | -6% |
| Tyrosine-protein kinase Lck (LCK, Homo sapiens, UniProt P06239) | 1 µM | 25% |

Mixed results
| SMILES | target or system | assay | system | setting | measurement | result |
| --- | --- | --- | --- | --- | --- | --- |
| N=C(N)NCCCCCCN1CCC23c4c5ccc(O)c4OC2c2nc4ccccc4cc2CC3(O)C1C5 (stereo not shown) | – | metabolic stability | human, liver microsomes | 1 µM, pH 7.4 | microsomal CLint | < 6 µL/min/mg |
| C#CCN1C(=O)C(O)(C(=O)O)Oc2cc(F)ccc21 (stereo not shown) | Arabidopsis thaliana | root length | Col-0 | 25.0 µg/mL, 7 days, seed germination, dark | inhibition | 69.6% |

Excerpt of the above (study 2):
| target | observed | method | remaining binding |
| --- | --- | --- | --- |
| Casein kinase I isoform alpha-like (CSNK1A1L, Homo sapiens, UniProt Q8N752) | binding | – | 41% |
| Ephrin type-A receptor 7 (EPHA7, Homo sapiens, UniProt Q15375) | – | cell-free binding | 100% |
| Phosphatidylinositol 3-kinase catalytic subunit type 3 (PIK3C3, Homo sapiens, UniProt Q8NEB9) | binding | – | 100% |
